{"data": "Measured values pooled from the literature", "note": "Every numbered part comes from another study and shows a few of its results, in no order.", "chain of UniProt P55212 (whole entry, looked up)": "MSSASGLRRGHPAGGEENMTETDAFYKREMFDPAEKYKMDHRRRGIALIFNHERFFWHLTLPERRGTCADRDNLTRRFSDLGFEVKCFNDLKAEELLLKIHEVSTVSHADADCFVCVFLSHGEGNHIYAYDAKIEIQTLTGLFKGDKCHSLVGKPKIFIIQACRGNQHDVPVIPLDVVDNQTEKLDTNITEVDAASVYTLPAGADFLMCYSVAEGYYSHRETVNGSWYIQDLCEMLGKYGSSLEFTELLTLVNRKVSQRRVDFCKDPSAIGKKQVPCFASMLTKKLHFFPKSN"}
{"data": "Series 1", "target": "UBE2A UBC core domain (UniProt P49459)", "technique": "yeast two-hybrid", "matrix": "yeast", "setting": "mostly zero background", "relative to": "not given", "direction": "higher = stronger interaction", "B1": "MID1 RING domain (UniProt O15344); chain METLESELTCPICLELFEDPLLLPCAHSLCFNCAHRILVSHCATNESVESITAFQCPTCRHVITLSQRGL", "B2": "PHF21A RING domain (UniProt Q96BD5); chain SPTSTDGDIHEDFCSVCRKSGQLLMCDTCSRVYHLDCLDPPLKTIPKGMWICPRCQDQMLKKEEAIPW", "B3": "TRIM69 RING domain (UniProt Q86WT6); chain VIQDITMELHCPLCNDWFRDPLMLSCGHNFCEACIQDFWRLQAKETFCPECKMLCQYNNCTF", "B4": "IRF2BPL RING domain (UniProt Q9H1B7); chain SPMANSGPLCCTICHERLEDTHFVQCPSVPSHKFCFPCSRESIKAQGATGEVYCPSGEKCPLVGSNVP", "chain of UniProt P49459 (whole entry, looked up)": "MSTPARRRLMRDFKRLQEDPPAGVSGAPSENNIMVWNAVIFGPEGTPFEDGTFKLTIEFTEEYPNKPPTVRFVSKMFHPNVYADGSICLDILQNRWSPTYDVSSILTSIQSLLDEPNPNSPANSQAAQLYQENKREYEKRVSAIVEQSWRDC"}
{"Molecule": "KTLSRFGIQPCSICLGDAKDPVCLPCDHVHCLRCLRAWFASEQMICPYCLTALPDEFSPA (RNF213 RING domain (UniProt Q63HN8))", "lacZ reporter activity": 0}
{"Molecule": "FPEHFVKSISCQICEHILADPVETNCKHVFCRVCILRCLKVMGSYCPSCRYPCFPTDLES (RAG1 RING domain (UniProt P15918))", "lacZ reporter activity": 0}
{"Molecule": "VTLSLTLPITCHICLGKVRQPVICINNHVFCSICIDLWLKNNSQCPACRVPITPENPCK (OBI1 RING domain (UniProt Q5W0B1))", "lacZ reporter activity": 0}
{"Molecule": "B1 (MID1 RING domain)", "lacZ reporter activity": 0}
{"Molecule": "B2 (PHF21A RING domain)", "lacZ reporter activity": 0}
{"Molecule": "YWAMDSTFELCKICAESNKDVKIEPCGHLLCSCCLAAWQHSDSQTCPFCRCEIKGWEAVS (CBLC RING domain (UniProt Q9ULV8))", "lacZ reporter activity": 0}
{"Molecule": "B3 (TRIM69 RING domain)", "lacZ reporter activity": 0}
{"Molecule": "B4 (IRF2BPL RING domain)", "lacZ reporter activity": 0}
{"data": "Series 2", "target": "HLA class I histocompatibility antigen, A alpha chain, allele A*80:01 (Homo sapiens, UniProt P04439)", "observed": "peptide-MHC binding", "form": "peptide", "concentration": "concentration not given"}
{"Molecule": "LYVAGVPEL", "binding": "inactive"}
{"Molecule": "DEFLKVPEW", "binding": "inactive"}
{"Molecule": "GLIQYPTAW", "binding": "inactive"}
{"Molecule": "KLIDVSKCI", "binding": "inactive"}
{"Molecule": "ASLIPDATY", "binding": "inactive"}
{"Molecule": "LELAEITAE", "binding": "inactive"}
{"Molecule": "TRDHVNLVL", "binding": "inactive"}
{"Molecule": "SVFELSNFA", "binding": "inactive"}
{"data": "Single results of other studies"}
{"Molecule": "C[C@H](CCC(=O)O)[C@H]1CC[C@H]2[C@@H]3[C@H](O)C[C@@H]4C[C@H](O)CC[C@]4(C)[C@H]3CC[C@]12C", "tested on": "HEK-293T/ACE2", "concentration": "10 µM", "time": "16 h", "relative to": "vehicle", "measurement": "viability", "value": "100%"}
{"Molecule": "Ac-DEVD-CHO", "tested on": "Caspase-6 (CASP6, Homo sapiens, UniProt P55212)", "measurement": "IC50", "value": "65.9 nM"}
{"note": "Repeated from above (series 2):"}
{"Molecule": "GLIQYPTAW", "binding": "inactive"}
{"Molecule": "KLIDVSKCI", "binding": "inactive"}
